Published values gathered from unrelated publications.
Lines come from different studies, so protocols differ. Numbers after ± are the reported error. Values after ≈ are worked out from the molar mass of the structure shown.

CC1(C)S[C@@H]2[C@H](NC(=O)[C@H](N)c3ccc(O)cc3)C(=O)N2[C@H]1C(=O)O — sensitive strains (coagulase-negative Staphylococcus; community-acquired pneumonia patients; Fine score 70 or more): 50%
C[C@H]1C[C@H]2CSC(N)=N[C@@]2(c2nc(NC(=O)c3ccc(OC(F)F)cn3)cs2)CO1 — change from baseline (refers to: CSF Aβx-42; healthy adults; 275 mg once daily, 14 days, day 15; baseline: placebo-adjusted baseline): -85%
N#Cc1c(-c2ccccc2)[nH]c2ccccc12 — viability (HEK293; cell growth or viability; 50 µM): 91.4%
CC[C@H]1OC(=O)[C@H](C)[C@@H](O[C@H]2C[C@@](C)(OC)[C@@H](O)[C@H](C)O2)[C@H](C)[C@@H](O[C@@H]2O[C@H](C)C[C@H](N(C)C)[C@H]2O)[C@](C)(O)C[C@@H](C)CN(C)[C@H](C)[C@@H](O)[C@]1(C)O — sensitive strains (coagulase-negative Staphylococcus; community-acquired pneumonia patients; Fine score below 70): 66.7%
Cc1ccc2cc(-c3ccccc3)[nH]c2c1 — inhibition (HEK293 NF-κB luciferase reporter; reporter gene, refers to: NF-κB; 50 µM, 6 h, added: TNFα): 97.3 ± 1.7%
CCOC(=O)c1nc2ccccc2c(=O)n1Cc1cn(-c2ccc(OC)cc2)nn1 — IC50 (Candida tropicalis; microbial growth, broth dilution; ATCC750; 24 h): 442 µg/mL (≈ 1090 µM)
CC[C@H](C)[C@H](NC(=O)[C@H](CCC(N)=O)NC(=O)[C@H](Cc1c[nH]cn1)NC(=O)[C@H](C)NC(=O)[C@H](CC(C)C)NC(=O)[C@H](CCCCN)NC(=O)[C@H](CCC(N)=O)NC(=O)[C@@H](NC(=O)[C@@H](NC(=O)[C@@H]1CSSC[C@H](NC(=O)CNC(=O)[C@H](Cc2ccccc2)NC(=O)[C@H](CO)NC(=O)[C@H](CCCNC(=N)N)NC(=O)[C@H](CC(C)C)NC(=O)CNC(=O)[C@H](CCC(N)=O)NC(=O)[C@H](Cc2ccccc2)NC(=O)[C@H](CC(N)=O)NC(=O)[C@H](CC(N)=O)NC(=O)[C@H](CCSC)NC(=O)[C@H](CO)NC(=O)[C@H](CCC(N)=O)NC(=O)[C@H](CCCNC(=N)N)NC(=O)[C@@H](N)Cc2ccc(O)cc2)C(=O)N[C@@H](CCCNC(=N)N)C(=O)N[C@@H](Cc2ccccc2)C(=O)NCC(=O)N[C@@H]([C@@H](C)O)C(=O)N1)[C@@H](C)O)C(C)C)C(=O)N[C@@H](Cc1ccc(O)cc1)C(=O)N[C@@H](CCC(N)=O)C(=O)N[C@@H](Cc1ccccc1)C(=O)N[C@H](C(=O)N[C@@H](CC(=O)O)C(=O)N[C@@H](CCCCN)C(=O)N[C@@H](CC(=O)O)C(=O)N[C@@H](CCCCN)C(=O)N[C@@H](CC(=O)O)C(=O)N[C@@H](CC(N)=O)C(=O)N[C@H](C(=O)N[C@@H](C)C(=O)N1CCC[C@H]1C(=O)N[C@@H](CCCNC(=N)N)C(=O)N[C@@H](CO)C(=O)N[C@@H](CCCCN)C(=O)N[C@H](C(=O)N[C@@H](CO)C(=O)N1CCC[C@H]1C(=O)N[C@@H](CCC(N)=O)C(=O)NCC(=O)N[C@@H](Cc1ccc(O)cc1)C(N)=O)[C@@H](C)CC)C(C)C)[C@@H](C)O — change in CDAI (patients, biologic-resistant Crohn's disease; intravenous infusion, 10 ng/kg/min, 6 weeks, unit not given, added: biologic; baseline: baseline): -79 ± 62
Brc1ccc(NCc2ccc(Oc3ccccn3)cc2)cc1 — MIC (Mycobacterium tuberculosis; H37Rv, 7H9/ADC/Tween medium; 1 week): 35 µM (≈ 12.4 µg/mL)
O=C(O)c1nc2ccccc2c(=O)n1Cc1cn(-c2cccc(F)c2)nn1 — IC50 (Candida tropicalis; microbial growth, broth dilution; ATCC750; 24 h): 175 µg/mL (≈ 480 µM)
CC[C@H]1OC(=O)[C@H](C)[C@@H](O[C@H]2C[C@@](C)(OC)[C@@H](O)[C@H](C)O2)[C@H](C)[C@@H](O[C@@H]2O[C@H](C)C[C@H](N(C)C)[C@H]2O)[C@](C)(O)C[C@@H](C)C(=O)[C@H](C)[C@@H](O)[C@]1(C)O — sensitive strains (coagulase-negative Staphylococcus; community-acquired pneumonia patients; Fine score 70 or more): 75%
ON=Cc1c(-c2ccccc2)[nH]c2ccccc12 — viability (HEK293; cell growth or viability; 50 µM): 106%
Cc1ccc(NC(=O)c2ccc(CN3CCN(C)CC3)cc2)cc1Nc1nccc(-c2cncc(-c3oncc3C)c2)n1 — PGI-S score (mild-to-moderate Parkinson's disease patients; oral, 50 mg once daily, day 7, on anti-Parkinson medication; direction not given): 2.2 ± 0.7
CCCCCc1ccc(-c2cc3ccccc3[nH]2)cc1 — inhibition (HEK293 NF-κB luciferase reporter; reporter gene, refers to: NF-κB; 50 µM, 6 h, added: TNFα): 76.1 ± 4.1%
CN(Cc1ccccc1)S(=O)(=O)c1ccc(CN2CCNCC2)cc1 — inhibition (CXCR4; CXCL12-induced cell invasion, Matrigel invasion; MDA-MB-231; 100 nM (0.1 µM), added: CXCL12 200 ng/mL; baseline: reference compound as 100%): 76%
